Results collected from several papers.
Every numbered part comes from another study and shows a few of its results, in no order. Positions count from the first letter of the parent shown.

Series 1
Target: ABI1, truncated, D143A, DHFR fusion (Arabidopsis thaliana)
Method: DHFR PCA, deep sequencing
Sample: yeast
Setting: methotrexate growth selection, single substitutions
Added: (+)-ABA 0.39 µM
Baseline: wild-type fitted maximum
Direction: higher = stronger binding
Parent: PYL1, truncated, DHFR fusion (Arabidopsis thaliana); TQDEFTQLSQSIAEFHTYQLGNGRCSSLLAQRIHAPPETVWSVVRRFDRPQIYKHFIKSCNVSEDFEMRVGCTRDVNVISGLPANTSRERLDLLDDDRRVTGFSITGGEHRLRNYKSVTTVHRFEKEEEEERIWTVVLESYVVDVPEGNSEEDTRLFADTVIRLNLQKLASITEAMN; partner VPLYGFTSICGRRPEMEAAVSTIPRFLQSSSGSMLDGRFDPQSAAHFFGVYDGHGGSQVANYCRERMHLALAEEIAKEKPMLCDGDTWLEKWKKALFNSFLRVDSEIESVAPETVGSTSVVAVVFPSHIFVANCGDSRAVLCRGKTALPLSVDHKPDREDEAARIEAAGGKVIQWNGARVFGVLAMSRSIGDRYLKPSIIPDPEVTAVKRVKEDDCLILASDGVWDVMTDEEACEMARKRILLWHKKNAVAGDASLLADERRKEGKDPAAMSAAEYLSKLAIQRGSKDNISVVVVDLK
| Substitution | relative binding score |
| --- | --- |
| E130P | 74.9% |
| P146Q | 21.1% |
| I52E | 31.3% |
| V40C | -4.44% |
| G23N | 38.8% |
| V121Q | -3.54% |
| W41I | -10.5% |
| E152T | 17.1% |
| R132D | 85.2% |
| Q31G | -5.29% |
| E64G | 32.8% |
| S150K | 5.54% |
| E139F | -17.5% |
| R123G | 79.3% |
| V62I | 28.8% |
| D95T | -3.4% |
| G71W | -15% |
| Q167I | 4.04% |

Series 2
Target: RNA binding protein fox-1 homolog 2, RRM domain, GST-SBP tag (RBFOX2, Homo sapiens, UniProt O43251-10, residues 100-194)
Method: RNA Bind-n-Seq
Form: RNA
Sample: in vitro
Concentration: 365 nM
Setting: natural RNA segment, single round, ends assumed
Baseline: no-protein control
Direction: higher = stronger binding
Shared flanks, not repeated: GGGAGUUCUACAGUCCGACGAUC … UGGAAUUCUCGGGUGCCAA
Residues (chain): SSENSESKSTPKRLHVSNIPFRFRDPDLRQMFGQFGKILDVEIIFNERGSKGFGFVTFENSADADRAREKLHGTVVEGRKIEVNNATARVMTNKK
| Oligonucleotide | RBNS enrichment (R) |
| --- | --- |
| CGAUAUUUAUCUUUGGUAAAUGACUUUAGAGCAGUUAAAGACAUUGCUUAAAAACUCAGAAUCAGAAAAACACUGAAUUAUUUAAGAACACAUAUAUUUUAAAGUAUAAC | 0.707 |
| GGCUCUGAGCGAGGCCUCUUCCUGCUGGGCUCCCAGACUCCUGCAUCCAGGCCCCCACCUUCUCGGCUUCUGGUUUUUCUUUCUUUUUGGUAGAACACAACAUCUACCAU | 1.11 |
| AUGGCUUUCUGCAACUUGCUACUCUCUCCCUCUCCAUCCCAUCUUUGCAGCCUCAUAGGGUGGGAUACAGCAGCUUUUUUUGCAGUUAUCCACACUCACAUUUCAGAGUC | 0.385 |
| AGCAGACGGUGUCCCUCAGUGACUUGAGAGACAAGGACAAGGAAAUGUGCUGGGCCAAGGAGCUGCCGUGCUCUGCUAGCUUUGACCCGUGGGCAUGGAGAUUUACCCGC | 0.888 |
| UGCCCGACUCCAGCUGCCCAAGGACCUUUGUGUAAGGUGGCCUCAACUGUCUGGUUUUCUUUUUUUCUUUCUUUUUAACAGUGUUUUGUAGAUUUCAGAUGACUAUGCAG | 0.483 |
| GGGCUGCACUCUGGGAGUGCUUACUCACAGUUUAUUUGCUUUUUUUAAAAAGGAGAUUAUUCUAAAACAUAAACUUAUUUGCAUAUAUUGGAGGAGCAUCCACUAUCAGU | 0.508 |
| AUCACAUGCUCUCCAGGAAAGGGACGGAAUCAAUCCUGUGACCGAUGGGCUCGCAAGGAUGGGUGCCGCCGUGGGAGCCCUGCCUCUGGUGCUGGCAAGGGAUUGGGUUU | 0.431 |
| GCCAACUUAAAGUUUUAGUUUGGUGUUUAUUGAAAAUUAACCAAACUUAAUACUAGGAGAAGACUGAAUCAUUAAUGAUGUCUCACAAAUUACUGUGUACCUAAGUGGUG | 0.316 |
| AAGAAAGAUGUUGCUUACUAUGGUGUCAAGGUGACGGAUGAAGCCAGCUGCUCCUAAGGACACAGGGCUGGGUUGGUAAAGAGAAGGCUAUGGUUGACUUCUUGCUUGUG | 1.53 |
| CGCCAUCUCCCGUGAGGCUUACAGAUUUCAAUAUUGGGAACAACUCUAAUCCUCAAACUAAGCCACCGUUUGGACUGCUAGUGUCACAGUUCGGGUGUUCCAUUGCACCC | 0.536 |
| AGCUGCUCCUGAGCAUGAAGGAACCCACCCUAAGCCAGUCCUGACAGCUGACAUGCCUCACUCAGAGAGGGGAAAGGCACUGGGCAGCCUUGAAGGAAGCCCUUCUCUCC | 1.37 |
| GUGACCACAUCGAGCAAAUGGCCACAGAUAGGAGAUCAGCACGUGCUCGUCUCCUAGGAUCUGUCACCCCAGUGAUGACCCUGCAUGACACCAGCAGCACCCAGAGCCGC | 10.2 |

Series 3
Target: Centromere-binding protein 1, full length, N-terminal tag (CBF1, Saccharomyces cerevisiae, UniProt P17106, residues 1-351)
UniProt P17106, sequence (whole entry, looked up): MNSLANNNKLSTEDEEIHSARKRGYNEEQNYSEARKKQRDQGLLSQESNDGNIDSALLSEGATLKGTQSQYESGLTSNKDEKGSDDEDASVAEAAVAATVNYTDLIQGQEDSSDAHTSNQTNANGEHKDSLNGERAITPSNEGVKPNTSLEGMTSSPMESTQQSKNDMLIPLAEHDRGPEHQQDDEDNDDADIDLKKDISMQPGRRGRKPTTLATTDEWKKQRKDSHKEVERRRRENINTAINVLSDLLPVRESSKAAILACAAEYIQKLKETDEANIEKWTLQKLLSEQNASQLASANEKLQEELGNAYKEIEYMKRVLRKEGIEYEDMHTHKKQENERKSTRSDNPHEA
Method: protein-binding microarray
Form: double-stranded DNA, one strand shown
Sample: in vitro
Concentration: 0.8 µM
Setting: whole 60-bp probe, no competitor
Direction: higher = stronger binding
Shared flanks, not repeated: … GTCTTGATTCGCTTGACGCTGCTG
| Oligonucleotide | fluorescence intensity [a.u.] |
| --- | --- |
| GAACGCGCAACCGCGCACGTAATTATTTTTACTTAG | 522 |
| CTAATATATATACGTGGTGAAATGAAATGAAAATTC | 539 |
| CTATGATGTAATAGTGATGTTATATTGCTTTCGTTC | 538 |
| GAAAATATAATAATACAGGTGATAGAATGCGAATAG | 690 |
| CTACATGTTACTACTCACCTGCTCTCACCGACTTTC | 579 |
| GAACCTTGAAAACGGCATCAGGATGCACAAAAATAG | 548 |
| GAAGACAAAGCTGCTGTGGTGGTGTTTTGTTAATAG | 521 |
| GAAGTGTTAATAATTAAGGTGACCTAAGCCCAGTAG | 539 |
| GAAGGTATTCGTTAAATCGTGATAGTCATTTCCTAG | 588 |
| GAATCCGAGCTTCGCTGACACGTGGGAGGTGGGTAG | 3320 |
| CTATAATGGAAGTTACAGGTGACATAAAATCTATTC | 883 |
| GAAGGAACTCTCGCTGATGTTCTGAGCGAGGTGTAG | 504 |
| GAACTCAACTTTGAATATGATCACATTATTTTTTAG | 1270 |
| GAAACAGAGAGGTAGCAGGTGATTTACGTAGTTTAG | 839 |
| CTAGTGCCATCCGGTCACATGACTACACCACGTTTC | 11800 |
| CTAATTGCTGCATTTCCCACCACGTCCTGGTGGTTC | 486 |
| GAAGTTATATTTTCCCACGTTTCACTTCGCGTTTAG | 554 |
| GAATCTCTCTCTGATGACGTGATATCTTTTATGTAG | 792 |
| GAATTTGACATTGTTCACATGATTGTTGCTCTGTAG | 924 |
| CTAATACTGTTGTATCACGACTAAGTAGTTGTCTTC | 559 |
| GAAATAAAAGACCCTCACCTGTGTCACTAAATGTAG | 553 |
| CTAGCACTATCATCATGCGTGATTGATATTTAATTC | 818 |
| GAAGAGAAAATTGACCACGTAGTAATAATAAGTTAG | 559 |
| CTACCGGGTGCGCGCCACGCAATATATAAAACGTTC | 489 |

Series 4
Target: Ras GTPase-activating protein-binding protein 1, RRM domain (G3BP1, Homo sapiens, UniProt Q13283)
UniProt Q13283, sequence (whole entry, looked up): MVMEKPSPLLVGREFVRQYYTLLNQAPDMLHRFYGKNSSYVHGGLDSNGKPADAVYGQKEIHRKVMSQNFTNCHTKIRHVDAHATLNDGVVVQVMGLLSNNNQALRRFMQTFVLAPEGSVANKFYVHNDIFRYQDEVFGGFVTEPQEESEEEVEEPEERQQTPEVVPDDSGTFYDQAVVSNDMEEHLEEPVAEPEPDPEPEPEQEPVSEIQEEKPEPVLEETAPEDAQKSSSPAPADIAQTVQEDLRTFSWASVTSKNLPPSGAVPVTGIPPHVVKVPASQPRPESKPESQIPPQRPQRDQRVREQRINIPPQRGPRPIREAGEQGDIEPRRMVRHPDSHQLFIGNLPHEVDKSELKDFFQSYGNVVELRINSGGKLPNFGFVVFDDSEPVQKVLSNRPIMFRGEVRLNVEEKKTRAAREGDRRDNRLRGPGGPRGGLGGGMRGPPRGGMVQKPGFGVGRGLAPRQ
Method: RNA Bind-n-Seq
Form: RNA
Sample: in vitro
Concentration: 1 µM
Setting: whole 134-nt RNA, ends assumed
Added: 150 mM KCl
Baseline: input library
Direction: higher = stronger binding
Shared flanks, not repeated: GGGAGUUCUACAGUCCGACGAUC … UGGAAUUCUCGGGUGUCAAGG
| Oligonucleotide | log2 enrichment |
| --- | --- |
| AAGUCCUGUGCUACACAUCGUAUGUACCGAAUCGGGAAAGGGAGGGUUUUUUUGGGAAAGUAUUAUGUUACGCCGUUCGGAUCUGCACUU | 0.743 |
| CAAGUCCUGUGCUACACAUCGUAUGUACCGAAUCGGAAAGGAAAAAAAGGAAAGGAAAGUAUUAUGUUACGCCGUUCGGAUCUGCACUUC | -0.171 |
| UGGCCCUGGUGGCAUGCGGGGAGGACGAGGUGGCCUCAUGGAUCGUGGUGGUCCCGGUGGAAUGUUCAGAGGUGGCCGUGGUGGAGACAG | 1.13 |
| AAGUCCUGUGCUACACAUCGUAUGUACCGAAUCGGGAAAGGGUUUUUUUGGGUGGGAAAGUAUUAUGUUACGCCGUUCGGAUCUGCACUU | 0.578 |
| AGUCCUGUGCUACACAUCGUAUGUACCGAAUCGGGGAAAAAGGGGAGGGGUUUGGGGAAAGUAUUAUGUUACGCCGUUCGGAUCUGCACU | 0.783 |
| UGGAAGUGGCGCUGGCGCCUGAAGAGUUGGAGCUGGAUCCUAUGGCCAUGACCCAGAAGUAUGAGGAGCAUGUGCGGGAGCAGCAGGCUC | -0.1 |
| ACCAUGCAGGUGGGCAUCUUUGGGAAGUGGGGCAAGGGGGGGAUAGGGAGGGGGGUAACACGUUGGGAACAGGUGGUCCCAGGUCGUUUC | 0.995 |
| CUCAAGUCCUGUGCUACACAUCGUAUGUACCGAAUCGUGUGUGUGUGUGUGUGUAAAGUAUUAUGUUACGCCGUUCGGAUCUGCACUUCC | -0.116 |
| GCAGGAAGUAAAAACAAAUGAAAAUGCUUCGGAUAGUGGCAGGGGUGGGGGUUGCUAAGGAAAGGGUGGGAUGGGAGUGGGUAAAGAGUU | 1.14 |
| UCAAGUCCUGUGCUACACAUCGUAUGUACCGAAUCGGGUUGGGUUGGGUUGGGGAAAGUAUUAUGUUACGCCGUUCGGAUCUGCACUUCC | 1.01 |
| AAGUCCUGUGCUACACAUCGUAUGUACCGAAUCGGGUUUUGGUUUUGGGUUUUGGGAAAGUAUUAUGUUACGCCGUUCGGAUCUGCACUU | -0.2 |
| AGUCCUGUGCUACACAUCGUAUGUACCGAAUCGGUUUUUUGGUUUUUUGGUUUUUUGGAAAGUAUUAUGUUACGCCGUUCGGAUCUGCAC | -0.0801 |
| UCCUGUGCUACACAUCGUAUGUACCGAAUCAAACCCCCCCAAACCCAAACCCCCCCAAAAAAGUAUUAUGUUACGCCGUUCGGAUCUGCA | -0.252 |
| CCUGUGCUACACAUCGUAUGUACCGAAUCAAACCCCCAAAUUUUUUUAAAUUUUUUUAAAAAAGUAUUAUGUUACGCCGUUCGGAUCUGC | -0.438 |

Series 5
Target: Histone acetyltransferase KAT6A, winged helix 2, GST fusion (KAT6A, Homo sapiens, UniProt Q92794, residues 85-181)
Method: protein binding microarray
Form: double-stranded DNA, one strand shown
Sample: in vitro
Concentration: not given
Setting: 8-mer, flanks averaged, mean of 2 arrays, mostly near background
Baseline: not given
Direction: higher = stronger binding
Construct (chain): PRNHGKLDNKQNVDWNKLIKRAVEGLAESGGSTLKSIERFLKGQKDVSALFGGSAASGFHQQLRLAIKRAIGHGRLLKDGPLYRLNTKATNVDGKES
| Oligonucleotide | E-score |
| --- | --- |
| ATCTACGG | -0.172 |
| AAGAATAT | -0.172 |
| ATCATAAC | 0.0926 |
| ATCGCCCG | -0.0103 |
| GTAACTTA | 0.0788 |
| AACAATAG | -0.137 |
| CATGCAGA | 0.00316 |
| AACTGGTC | -0.128 |
| ATCGTCGG | -0.0564 |
| AATATCCA | 0.117 |
| CCGGATAA | 0.0999 |
| AAGCTGCA | 0.0415 |
| AAGACAAA | 0.0439 |
| AGAGTGCT | -0.093 |
| ACCGTGGG | -0.104 |
| CATAGGAC | -0.187 |
| CAAGATGC | 0.11 |

Excerpt of the above (series 1):
| Substitution | relative binding score |
| --- | --- |
| P146Q | 21.1% |
| I52E | 31.3% |
| V40C | -4.44% |
| G23N | 38.8% |
| V121Q | -3.54% |
| W41I | -10.5% |
| E152T | 17.1% |
| R132D | 85.2% |
| Q31G | -5.29% |
| E64G | 32.8% |
| S150K | 5.54% |
| E139F | -17.5% |
| R123G | 79.3% |
| V62I | 28.8% |
